Results from different studies.
Each line is one published result; not all experiments were run side by side. “And” joins repeats or separate records; there may be more than shown. ± marks the error that the study gave.

| SMILES | cell line | assay | setting | scale | endpoint | result |
| --- | --- | --- | --- | --- | --- | --- |
| Cc1nc(Nc2ncc(C(=O)Nc3c(C)cccc3Cl)s2)cc(N2CCN(C(=O)CN)CC2)n1 | KU812 | flow cytometry | concentration not given, 1 h |  | early apoptotic cells | 8.81% and 6.36% and 6.81% |
| CNS(=O)(=O)Nc1nccc(Cc2c(C)c3ccc(Oc4ncccc4F)cc3oc2=O)c1F | SUP-T1 | cell viability | 7 days |  | IC50 | > 1 µM |
| COc1ccc(NC(=O)c2ccc3[nH]c(-c4ccc(N(C)C)cc4)nc3c2)cn1 | HCT116 | IncuCyte | concentration not given, 18 h |  | dead cell to confluence ratio | 78.6 and 193 and 342 |
| COc1ccc(NC(=O)c2c(Nc3ccccc3)sc(C(=O)N/N=C/c3ccc(OC)c(OC)c3)c2NC(C)=O)cc1 | HCT-116 | cell growth or viability, SRB | 100 µM, 48 h |  | viability | 32.4% |
| Cn1ncc2cc(-c3cncc(Cl)c3N3CCC4(CCNC4=O)CC3)ccc21 | LS174T | microarray, refers to: DAGLA | concentration not given, 4 h, gene set DGL-alpha | relative to: untreated cells | fold change in expression | -1.86 |
| CC(C)(C)c1cc(-c2ccc3cccnc3n2)nc(-c2ccc3cccnc3n2)c1.[Cl-].[Cl-].[Ru+2].c1cnc2c(c1)ccc1cccnc12 | B16-F10 | resazurin | together with: light 523 nm, 20 mW, 100 J/cm2 |  | EC50 | 168 ± 4 µM |
| C=C(NC(=O)c1csc(-c2ccc(NC(=O)CCCCCBr)cc2)n1)C(=O)NC(=C)C(=O)OC | NCI-H2009 | cell growth or viability |  |  | EC50 | 1.1 µM |
| COc1cc(/C=C/C(=O)/C=C(O)/C=C/c2ccc(OCC(=O)N3CCOCCOCCOCC3)c(OC)c2)ccc1OCC(=O)N1CCOCCOCCOCC1 | U-251 | cell growth or viability, SRB | 25 µM |  | inhibition | 54.2% |
| CCn1nc(Cl)c2c1-c1cnc(N)c(c1)O[C@H](C)c1cc(F)ccc1-c1nn(C)cc1C2 | NCI-H2228 (EML4-ALK variant 3) | cell viability |  |  | Emax | 29.4% |
| CCOc1cncc(-c2ccc(NC(=O)C3(c4ccnc(NS(=O)(=O)C5CC5)n4)CCOCC3)nc2)n1 | KG-1 | cell proliferation, CellTiter-Glo | 72 h |  | IC50 | 0.095 µM |
| C=CC(=O)N1[C@H](c2ccc3c(c2)OCO3)c2[nH]c3ccccc3c2C[C@@H]1C(=O)NC | rat DRG neurons |  | 30 µM, 48 h, together with: vincristine 40 nM |  | neuron degeneration | 17.2% and 13.6% |
| CCN(CC)CC(=O)Nc1cccc(-n2cc(-c3ccc4ccc(-c5cn(-c6cccc(NC(=O)CN(CC)CC)c6)nn5)cc4c3)nn2)c1 | RCC4 | PCR angiogenesis array, refers to: AKT1 | 5 x IC50, 6 h, normoxia | relative to: untreated | fold regulation | -1.33 |
| Cc1ncsc1-c1ccc(C(C)NC(=O)C2CC(O)CN2C(=O)C(NC(=O)CCCCCCCCCCN2CCCC(Nc3ncc(Cl)c(Nc4ccccc4S(=O)(=O)C(C)C)n3)C2)C(C)(C)C)cc1 (centres unmarked) | 22Rv1 | RNA-seq, refers to: SEMA6A-AS1 | concentration not given | relative to: DMSO | log2 fold change | -1.55 |
| CN1CCCNC(=O)c2cccc(c2)C(=O)NCCCN(C)CCCNc2cccc3c2C(=O)c2cccc(c2C3=O)NCCC1 | SAS | RNA-Seq, refers to: NOL8 mRNA | 1 µM, 6 h | relative to: untreated cells | log2 fold change | -0.992 |
| COc1ccccc1-c1ccncc1C(=O)Nc1nnc(OCc2ccc(Cl)cc2)s1 | MDA-MB-436 BRCA1-mutant |  | 12 µM, mean of 3 replicates | relative to: untreated | colony survival | 44.5% |
| CC(C)(C)c1cc(-c2ccc3cc4ccccc4nc3n2)nc(-c2ccc3cc4ccccc4nc3n2)c1.[Cl-].[Cl-].[Ru+2].c1ccc2cc3nc4c5cccnc5c5ncccc5c4nc3cc2c1 | B16-F10 | resazurin | together with: light 523 nm, 20 mW, 100 J/cm2 |  | EC50 | 16.3 µM |
| CN1CCC(N[C@H]2CCc3[nH]c4c(C(N)=O)ccc(-c5ccccc5Cl)c4c3C2)CC1 | HuCCT-1 | cell growth or viability |  |  | IC50 | 1 µM |
| CCN(C(=O)c1cc(F)ccc1Oc1nncnc1N1CCC2(C1)CN([C@H](CCCN(C)CCOC)C(C)C)C2)C(C)C | 5637 | cell growth | 72 h |  | GI50 | > 10 µM |
| CC1(C)CC[C@@]2(CO)C(=C3C=C[C@@H]4[C@@]5(C)CC[C@H](O)[C@@](C)(CO)[C@@H]5CC[C@@]4(C)[C@]3(C)C[C@@H]2O)C1 | HepG2, SIRT1 siRNA | flow cytometry | concentration not given, high dose, together with: ethanol | relative to: control cells | relative ROS fluorescence | 1.89 and 2.16 and 1.54 |
| COC(=O)c1cc(NC2=NC(=O)C(=Cc3ccc(C)cc3)S2)ccc1OC(C)=O | MCF7 | GC-MS, refers to: Butanedioic acid | 1 µM | relative to: DMSO | metabolite level | 0.23 fold change |
| [Cl-].[Cl-].[Ru+2].c1cc(-c2ccc3cccnc3n2)nc(-c2ccc3cccnc3n2)c1.c1ccc2cc3nc4c5cccnc5c5ncccc5c4nc3cc2c1 | B16-F10 | photocytotoxicity, resazurin | visible light 400-700 nm, 20 mW, 100 J/cm2 |  | EC50 | 7.58 µM |
| O=C1CCP(=O)(c2ccccc2)CC1 | SW-620 | MTT | 72 h | relative to: IC50 HaCaT over IC50 SW-620 | selectivity index | 1 |
| C[C@@H]1Cc2c([nH]c3ccccc23)[C@@H](c2c(F)cc(/C=C/C(=O)O)cc2F)N1C12CC(C1)C2 | MCF7 | RNA-seq, refers to: NOS1AP mRNA | 1 µM, 24 h, E2-induced gene | relative to: DMSO vehicle | log2 fold change | -1.12 |
| CC(C)c1ccc(N(C)c2ccc3c(c2)OCC[C@H]3CNc2cnccc2C(=O)O)cc1 | NCI-H358 | cell viability, CellTiter-Glo | 7 days |  | IC50 | 0.00657 µM |
| O=C(C[Se]C(=O)c1cc2ccccc2[nH]1)Nc1cccc(C(F)(F)F)c1 | OVCAR-4 | cell growth or viability, SRB |  |  | GI50 | 0.7 µM |
| C=CC(=O)N1CCCC(n2c(=O)c3ncccc3n(Cc3ccc(Oc4ccccc4)cc3)c2=O)C1 (centres unmarked) | Rec1 | refers to: RHOB | concentration not given | relative to: untreated | log2 fold change | 0.618 |

Repeated from above:
| SMILES | cell line | assay | setting | scale | endpoint | result |
| --- | --- | --- | --- | --- | --- | --- |
| COc1cc(/C=C/C(=O)/C=C(O)/C=C/c2ccc(OCC(=O)N3CCOCCOCCOCC3)c(OC)c2)ccc1OCC(=O)N1CCOCCOCCOCC1 | U-251 | cell growth or viability, SRB | 25 µM |  | inhibition | 54.2% |
| C=CC(=O)N1CCCC(n2c(=O)c3ncccc3n(Cc3ccc(Oc4ccccc4)cc3)c2=O)C1 (centres unmarked) | Rec1 | refers to: RHOB | concentration not given | relative to: untreated | log2 fold change | 0.618 |
